Experimental data of several laboratories.
“And” joins repeats or separate records; there may be more than shown. Numbers after ± are the reported error.

Compound | test | system | conditions | tissue uptake
CC(C)[C@H](NC(=O)[C@@H]1CCCN1C(=O)[C@H](CCCNC(=N)N)NC(=O)[C@H](CS)NC(=O)[C@H](Cc1c[nH]c2ccccc12)NC(=O)[C@H](CCCNC(=N)N)NC(=O)[C@@H](Cc1ccccc1)NC(=O)[C@H](Cc1c[nH]cn1)NC(=O)[C@H](CCC(=O)O)NC(=O)[C@H](CS)NC(=O)[C@H](CS)NC(=O)CNC(=O)[C@@H]1CC(=O)N[C@@H](CCCNC(=N)N)C(=O)NCC(=O)N[C@@H](CC(=O)O)C(=O)N[C@H](Cc2ccc(O)cc2)C(=O)N1)C(N)=O [technetium-99m labelled] | – | C57 mice B16/F1 melanoma female, kidneys | iv, 0.037 MBq, 0.5 h | 33.7 ± 12 %ID/g
O=C(NCC1OC2CCC=CCCC2O1)c1ccc(COCCOCCOCC[18F])cc1 (stereo not shown) | – | female BALB/c nude mice, liver | intravenous, 15 min | 6.3 ± 0.2 %ID/g
CCCC[C@H](NC(=O)CNC(=O)CNC(=O)CN1CCN(CC(=O)O)CCN(CC(=O)O)CCN(CC(=O)O)CC1)C(=O)N[C@H]1CC(=O)NCCCC[C@@H](C(N)=O)NC(=O)[C@H](Cc2c[nH]c3ccccc23)NC(=O)[C@H](CCCNC(=N)N)NC(=O)[C@@H](Cc2ccccc2)NC(=O)[C@H](Cc2c[nH]cn2)NC1=O [gallium-67 labelled] | – | female C57 mice, B16/F1 melanoma, spleen | intravenous, 0.037 MBq, 0.5 h | 1.39 ± 0.13 %ID/g
O=C([O-])CN1CCN(CC(=O)[O-])CCN(CC(=O)NCCc2ccc3c(c2)C2C=CCC2C(c2cc4c(cc2Br)OCO4)N3)CCN(CC(=O)[O-])CC1.[111In+3] (stereo not shown) | – | mice with Hec50 tumour xenograft, adrenals | 2 h, added: G-1 5 µg blocking | 0.55 ± 0.14 %ID/g
CCCC[C@@H]1NC(=O)[C@@H](NC(=O)[C@H](CCC(=O)O)NC(=O)CNC(=O)CN2CCN(CC(=O)O)CCN(CC(=O)O)CCN(CC(=O)O)CC2)CCCCNC(=O)C[C@@H](C(N)=O)NC(=O)[C@H](C(C)C)NC(=O)[C@@H]2CCCN2C(=O)[C@H](CCCNC(=N)N)NC(=O)CNC(=O)[C@H](Cc2c[nH]c3ccccc23)NC(=O)[C@H](CCCNC(=N)N)NC(=O)[C@@H](Cc2ccccc2)NC(=O)[C@H](Cc2c[nH]cn2)NC(=O)[C@H](CCC(=O)O)NC1=O [gallium-67 labelled] | – | normal C57 mice, heart | intravenous, 0.037 MBq, 2 h | 0.09 ± 0.06 %ID/g
NC12CNCCNCC(NCc3ccc(CNC(=O)CCCC(=O)NCc4ccc(-c5nncnn5)cc4)cc3)(CNCCNC1)CNCCNC2.[64Cu+2] | – | athymic nude mice SW1222 xenograft, tumor | 12 h post injection, 24 h accumulation interval, added: huA33-TCO pretargeting | 6.74 %ID/g and 6.7 %ID/g
CCCC[C@H](NC(=O)CNC(=O)CNC(=O)CN1CCN(CC(=O)O)CCN(CC(=O)O)CC1)C(=O)N[C@H]1CC(=O)NCCCC[C@@H](C(N)=O)NC(=O)[C@H](Cc2c[nH]c3ccccc23)NC(=O)[C@H](CCCNC(=N)N)NC(=O)[C@@H](Cc2ccccc2)NC(=O)[C@H](Cc2c[nH]cn2)NC1=O [gallium-67 labelled] | – | female C57 mice, B16/F1 melanoma, tumor | intravenous, 0.037 MBq, 2 h | 25.1 ± 1.03 %ID/g
O=C([O-])CN1CCN(CC(=O)[O-])CCN(CC(=O)[O-])CCN(CC(=O)[O-])CC1.[64Cu+2] | – | healthy athymic nude mice, small intestine | intravenous, 4 h | 0.88 %ID/g
CCCC[C@H](NC(=O)CN1CCC(NC(=O)CN2CCN(CC(=O)O)CCN(CC(=O)O)CCN(CC(=O)O)CC2)CC1)C(=O)N[C@H]1CC(=O)NCCCC[C@@H](C(N)=O)NC(=O)[C@H](Cc2c[nH]c3ccccc23)NC(=O)[C@H](CCCNC(=N)N)NC(=O)[C@@H](Cc2ccccc2)NC(=O)[C@H](Cc2c[nH]cn2)NC1=O [gallium-68 labelled] | – | C57BL/6J mice male B16-F10 tumour, heart | 1 h post injection, unblocked | 0.3 ± 0.1 %ID/g
CN1C(=O)[C@@H](Cc2ccc(O)c(I)c2)NC(=O)CNC(=O)[C@H](Cc2ccc3ccccc3c2)NC(=O)[C@H](CCCNC(=N)N)NC(=O)[C@H]1CCCNC(=O)c1ccc(CNC(=O)CN2CCN(CC(=O)O)CCN(CC(=O)O)CCN(CC(=O)O)CC2)cc1 [lutetium-177 labelled] | measured: 177Lu radioactivity | female CB-17 SCID mice, Daudi xenograft, heart | intravenous, 0.16 nmol per mouse, 6 h | 0.18 ± 0.02 %ID/g

Repeated from above:
Compound | test | system | conditions | tissue uptake
CC(C)[C@H](NC(=O)[C@@H]1CCCN1C(=O)[C@H](CCCNC(=N)N)NC(=O)[C@H](CS)NC(=O)[C@H](Cc1c[nH]c2ccccc12)NC(=O)[C@H](CCCNC(=N)N)NC(=O)[C@@H](Cc1ccccc1)NC(=O)[C@H](Cc1c[nH]cn1)NC(=O)[C@H](CCC(=O)O)NC(=O)[C@H](CS)NC(=O)[C@H](CS)NC(=O)CNC(=O)[C@@H]1CC(=O)N[C@@H](CCCNC(=N)N)C(=O)NCC(=O)N[C@@H](CC(=O)O)C(=O)N[C@H](Cc2ccc(O)cc2)C(=O)N1)C(N)=O [technetium-99m labelled] | – | C57 mice B16/F1 melanoma female, kidneys | iv, 0.037 MBq, 0.5 h | 33.7 ± 12 %ID/g
